Measured values from different studies.
Numbered parts are unrelated; each lists some results of a single study.

Series 1
Target: RNA binding protein fox-1 homolog 2, RRM domain, GST-SBP tag (RBFOX2, Homo sapiens, UniProt O43251-10, residues 100-194)
Method: RNA Bind-n-Seq
Form: RNA
Medium: in vitro
Concentration: 365 nM
Notes: natural RNA segment, single round, ends assumed
Baseline: no-protein control
Direction: higher = stronger binding
| Strand | RBNS enrichment (R) |
| --- | --- |
| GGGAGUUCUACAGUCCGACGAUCUAUGAUGCAUUUAUAAACUAACUGGAACUGAGAAAUUCUCAUGCCCACUAAAGGAAAAGCUAAUUCUAUUGCCCCAGGGUGCAUAUUUCUAUGCCUUAUUUGAGUUAUCAUGGAAUUCUCGGGUGCCAA | 0.483 |
| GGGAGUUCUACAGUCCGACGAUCUGGAAUUCAGCAGUUUUAUCCUGGCCUUGUACUUGCUUGUAUUGUAAAUGUGGAUUUUGUAGAUGUUAGGGUAUAAGUUGCUGUAAAAUUUGUGUAAAUUUGUAUCCACAUGGAAUUCUCGGGUGCCAA | 4.46 |
| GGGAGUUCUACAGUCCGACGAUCGGGGGAGAAGAAAGGCUUAUCUUUAUAUUUAUACAUGCCUACAAGGAAGACAGACUCAUCCAGCGCCACCUCGGGCCCUCCCAGCACACGCAUGGUCUCUUCACUGCUGCUGGAAUUCUCGGGUGCCAA | 2.29 |
| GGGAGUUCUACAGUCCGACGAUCCACGGAGCUGCACAGCGUGGGGAACUCAUCCAUCACUUUCAAAAUUAGAGUCAUUUGAUCCAAGUUGGAGUCAGACACAGUAUUUGAGCUGCACGGCUUCUGGGUUCUCCUGGAAUUCUCGGGUGCCAA | 0.592 |
| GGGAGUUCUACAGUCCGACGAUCUAAUUGGGGGUGGGUUACAAAACAUUUGAUCCUUGUAAAUACAUUGUACAGAAUAUUUAUUUUUUCUCAAAAUGCAUUUUAACUACUACAUUGGCUGUGCCCAAAUGAGUUGGAAUUCUCGGGUGCCAA | 0.549 |
| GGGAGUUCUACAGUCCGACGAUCAAGCCAGAUCGAUUUGACUUUGCUUCCAUGCUGUGUGUUCUGAAAGGACAUGGCUCUAAAAUUUCCUGUUGAUUGGCAUGUGUAUCUCAUUUAAAGCAAAAUUAGGUAGAUGGAAUUCUCGGGUGCCAA | 6.46 |
| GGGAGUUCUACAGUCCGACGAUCAUACCAGCUAGGUCAGGGGGUGGGGAAAACACAUACAAAAAGGCAAGCCCAUGUCAGGGCGAUCCUGGUUCAAAUGUGCCAUUUCCCGGGUUGAUGCUGCCACACUUUGUUGGAAUUCUCGGGUGCCAA | 0.383 |
| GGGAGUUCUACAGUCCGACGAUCCCACUCCACCUGCAAAAGACGAUGGCUCUGUUGUUCUUGGCUUCCUGGUGUGCUUUGAAGGCAGAUGAGCUGGUGAUUUCAUUGGGCACUUGGCCCUUUUCCAAGCACAUUGGAAUUCUCGGGUGCCAA | 0.483 |

Series 2
Target: Histone acetyltransferase KAT6A, both winged helices, GST fusion (KAT6A, Homo sapiens, UniProt Q92794, residues 1-181)
Method: protein binding microarray
Form: double-stranded DNA, one strand shown
Medium: in vitro
Concentration: not given
Notes: 8-mer, flanks averaged, mean of 2 arrays, mostly near background
Baseline: not given
Direction: higher = stronger binding
Construct (chain): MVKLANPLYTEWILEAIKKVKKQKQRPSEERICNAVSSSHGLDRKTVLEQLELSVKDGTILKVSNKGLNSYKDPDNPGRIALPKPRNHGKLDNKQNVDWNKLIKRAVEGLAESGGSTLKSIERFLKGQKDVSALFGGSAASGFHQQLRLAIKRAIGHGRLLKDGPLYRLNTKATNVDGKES
| Strand | E-score |
| --- | --- |
| CCTAAGGA | -0.187 |
| ACGAGAAG | -0.11 |
| TGGGACCA | -0.187 |
| ACGGTAGT | 0.0963 |
| AGTCTCCG | 0.195 |
| AAGTTCTG | -0.0276 |
| GAACAGAA | 0.0138 |
| CCGAATCA | -0.0376 |

Series 3
Target: RING finger protein unkempt homolog, zinc fingers 1-6, GST-SBP tag (UNK, Homo sapiens, UniProt Q9C0B0, residues 30-357)
Method: RNA Bind-n-Seq
Form: RNA
Medium: in vitro
Concentration: not given
Notes: RNA with constant flanks, human-mouse chimeric sites, ends assumed
Baseline: input RNA pool
Direction: higher = stronger binding
Target sequence (chain): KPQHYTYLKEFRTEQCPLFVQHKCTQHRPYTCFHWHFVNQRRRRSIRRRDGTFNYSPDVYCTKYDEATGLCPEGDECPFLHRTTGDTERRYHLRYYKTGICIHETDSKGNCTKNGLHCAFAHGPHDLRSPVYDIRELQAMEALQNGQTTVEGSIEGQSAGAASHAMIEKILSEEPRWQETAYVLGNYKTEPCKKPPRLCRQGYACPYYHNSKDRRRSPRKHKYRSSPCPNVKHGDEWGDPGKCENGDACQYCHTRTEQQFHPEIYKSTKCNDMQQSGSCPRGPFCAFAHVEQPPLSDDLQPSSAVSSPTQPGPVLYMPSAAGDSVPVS
| Strand | bound/input enrichment |
| --- | --- |
| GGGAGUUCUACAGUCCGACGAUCGUAUACGGUUAUCGAGGAAAGGACUGUAGAGCGAAUGUAUACCUGCUUCCGACCGGGGAGAUAGUUUAUUUUAUCGCCUCAGUGGUAGUACUAUUUAAUUAUGAGGAGAGGACUCAGCGACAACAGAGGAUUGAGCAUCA | 1.19 ratio |
| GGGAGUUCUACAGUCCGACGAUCUCUUUAAAAAAAAAAUUACAGGAAAAUACAGUGCUUUCCCUCCCAUAGAUCCACGUUCAAGCUCAAAGAGCAAAGGCUCCGCAAACAGCUCAAACAUCUGAUGAAGAAAGAUUUCUGAGACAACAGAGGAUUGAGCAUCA | 0.937 ratio |
| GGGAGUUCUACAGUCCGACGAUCGUGUCCUGCUUUCAACUUAAAUCACUGAGGCAUCUCUACUAUUCUGUGAGCAUCAGGACUGUAGCGCUGUGUCACCACAUGAGAGUUCAGAAGCAGCCUUUCUGUGGAGGGUGGGAAUGACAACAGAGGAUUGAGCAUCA | 0.164 ratio |
| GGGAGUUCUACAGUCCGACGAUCGGAAGUACAAUGAUGGAGAUUGAUGGUGACAAAGGCAAGCAGGGCGGGCCCACCUACUACAUAGACACUAAUGCUCUCCGCGUGCCCAGGGAGAACAUGGAGGCCAUCUCACCACUCAAGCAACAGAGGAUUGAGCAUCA | 0.525 ratio |
| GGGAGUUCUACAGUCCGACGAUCUACAUUUUAUUGUUGAGUUUCAUUUUCAUAUAUUCUUGUAGUGUCUGCUUGCCUGUGACUUCUGGUAAAAUAAAAUAAGCCUUUGAAAAUAUUUUAGAUUUAACAUUAACAUUUUCUAAACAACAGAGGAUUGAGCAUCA | 3.83 ratio |
| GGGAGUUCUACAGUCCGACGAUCAUGGAACAUUUCGAUGCGUCACUCAGUACCUAUUUCAAGGCCUUCCUGGGCCCCCGAGAUACAAGAGUCAAAGGAUGGUUCCUCCUGGACAAUUAUAUCCCUACGUUUGUCUGUUCUGUUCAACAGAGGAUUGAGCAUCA | 0.0941 ratio |
| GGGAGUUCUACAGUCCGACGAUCCUGUUUUGACAGCCACACAAUCUUGGCAUGUAUUAAGGAAAAAAAAAAUCCCUGUUCAAGUAGUUUUUCCACCUAUCAGCACUGAGUAAAUGCCAUAACUCCGCGGAAAUGGUCUAAAUACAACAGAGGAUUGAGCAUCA | 0.204 ratio |

Series 4
Molecule: PhoQ, residues 284 288 289 292 302 303 SSCLAV
Method: Sort-seq
Measured: YFP reporter
Medium: E. coli
Notes: PhoQ-PhoP variant library
With: 10 µM Mg2+
Baseline: high Mg2+ state
Direction: higher = stronger signaling
| target | fold induction |
| --- | --- |
| PhoP, residues 12 14 15 18 19 QQAYL (Escherichia coli, UniProt P23836) | 14.8 |
| PhoP, residues 12 14 15 18 19 LFHKL (Escherichia coli, UniProt P23836) | 3.25 |
| PhoP, residues 12 14 15 18 19 GMGLL (Escherichia coli, UniProt P23836) | 5.21 |

Repeated from above (series 3):
| Strand | bound/input enrichment |
| --- | --- |
| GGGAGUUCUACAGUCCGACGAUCUCUUUAAAAAAAAAAUUACAGGAAAAUACAGUGCUUUCCCUCCCAUAGAUCCACGUUCAAGCUCAAAGAGCAAAGGCUCCGCAAACAGCUCAAACAUCUGAUGAAGAAAGAUUUCUGAGACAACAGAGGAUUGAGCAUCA | 0.937 ratio |
| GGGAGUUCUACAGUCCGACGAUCCUGUUUUGACAGCCACACAAUCUUGGCAUGUAUUAAGGAAAAAAAAAAUCCCUGUUCAAGUAGUUUUUCCACCUAUCAGCACUGAGUAAAUGCCAUAACUCCGCGGAAAUGGUCUAAAUACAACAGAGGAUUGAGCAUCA | 0.204 ratio |
